{"data": "Assay results pooled from the literature", "note": "A part holds a random share of what one study measured. Changes are numbered by the printed parent chain."}
{"data": "Study 1", "target": "CCNF, cyclin fold, Cln2 fusion (human)", "technique": "yeast growth competition, sequencing", "sample": "yeast", "setting": "strong parent motif", "baseline": "not given", "direction": "higher = stronger binding", "parent": "SLBP docking peptide (human); ARYKRKLLINDFG; partner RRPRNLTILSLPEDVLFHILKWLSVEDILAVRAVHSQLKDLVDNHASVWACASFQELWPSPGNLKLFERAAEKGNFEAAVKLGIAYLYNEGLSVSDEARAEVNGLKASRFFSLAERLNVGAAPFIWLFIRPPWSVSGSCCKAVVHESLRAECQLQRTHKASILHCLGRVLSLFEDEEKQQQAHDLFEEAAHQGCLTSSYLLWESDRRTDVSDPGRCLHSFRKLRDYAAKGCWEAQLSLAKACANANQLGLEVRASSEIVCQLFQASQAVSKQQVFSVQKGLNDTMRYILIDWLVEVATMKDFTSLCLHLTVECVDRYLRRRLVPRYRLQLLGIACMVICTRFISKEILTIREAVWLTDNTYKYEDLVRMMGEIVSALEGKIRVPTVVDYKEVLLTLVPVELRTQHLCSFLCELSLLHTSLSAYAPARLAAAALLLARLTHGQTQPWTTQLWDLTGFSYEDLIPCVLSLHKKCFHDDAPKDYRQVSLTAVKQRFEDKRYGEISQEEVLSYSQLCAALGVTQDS"}
{"Substitution": "A1F", "normalised enrichment score": 0.97}
{"Substitution": "L7M", "normalised enrichment score": 1.3}
{"Substitution": "Y3D", "normalised enrichment score": 1.41}
{"Substitution": "A1H", "normalised enrichment score": 2.35}
{"Substitution": "F12Q", "normalised enrichment score": 1.39}
{"Substitution": "R5K", "normalised enrichment score": 1.13}
{"Substitution": "N10S", "normalised enrichment score": 1.84}
{"Substitution": "L8I", "normalised enrichment score": 2.02}
{"data": "Study 2", "target": "TAR DNA-binding protein 43, full length, His tag (TARDBP, Homo sapiens, UniProt Q13148, residues 1-414)", "technique": "RNA Bind-n-Seq", "molecule type": "RNA", "sample": "in vitro", "concentration": "20 nM", "setting": "6-mer, flanks averaged, single round", "added": "150 mM KCl", "baseline": "input library", "direction": "higher = stronger binding"}
{"Strand": "AAGUUG", "6-mer enrichment (R)": 0.754}
{"Strand": "GAAGAU", "6-mer enrichment (R)": 0.835}
{"Strand": "CCGCGC", "6-mer enrichment (R)": 0.829}
{"Strand": "CUAAGA", "6-mer enrichment (R)": 0.665}
{"Strand": "AAUAGG", "6-mer enrichment (R)": 1.01}
{"Strand": "UGCCUU", "6-mer enrichment (R)": 0.687}
{"Strand": "AGAGUC", "6-mer enrichment (R)": 0.739}
{"Strand": "GAGAUC", "6-mer enrichment (R)": 0.811}
{"data": "Study 3", "target": "Protein C-ets-1 (ETS1, Homo sapiens, UniProt P14921, residues 1-441, Y397A, full length assumed)", "technique": "protein-binding microarray", "molecule type": "double-stranded DNA, one strand shown", "sample": "in vitro", "concentration": "not given", "setting": "k-mer, scored over probes, only values ≥0.25", "direction": "higher = stronger binding", "sequence of UniProt P14921 (whole entry, unmodified, looked up)": "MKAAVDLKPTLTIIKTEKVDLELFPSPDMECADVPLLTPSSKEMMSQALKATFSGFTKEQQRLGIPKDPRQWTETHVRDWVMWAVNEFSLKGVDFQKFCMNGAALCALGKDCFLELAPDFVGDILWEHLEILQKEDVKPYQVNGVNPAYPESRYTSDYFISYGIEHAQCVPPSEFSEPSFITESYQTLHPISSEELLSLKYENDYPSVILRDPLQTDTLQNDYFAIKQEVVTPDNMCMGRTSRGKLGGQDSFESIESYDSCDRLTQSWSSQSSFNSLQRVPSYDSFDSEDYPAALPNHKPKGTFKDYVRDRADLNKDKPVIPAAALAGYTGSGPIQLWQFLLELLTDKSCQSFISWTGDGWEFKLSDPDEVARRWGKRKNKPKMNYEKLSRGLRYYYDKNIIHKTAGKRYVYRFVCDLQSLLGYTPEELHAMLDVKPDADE"}
{"Strand": "AACAAACA", "E-score": 0.296}
{"Strand": "GATTGCAA", "E-score": 0.295}
{"Strand": "ATCCGGCA", "E-score": 0.347}
{"Strand": "ACTGGCAC", "E-score": 0.281}
{"Strand": "CTTTTGTA", "E-score": 0.276}
{"Strand": "TATGGGGA", "E-score": 0.282}
{"Strand": "ACAACCAT", "E-score": 0.256}
{"Strand": "ACAATTCG", "E-score": 0.277}
{"data": "Mixed results", "parent": "PafA, mature enzyme, eGFP fusion (Elizabethkingia meningoseptica, UniProt Q9KJX5); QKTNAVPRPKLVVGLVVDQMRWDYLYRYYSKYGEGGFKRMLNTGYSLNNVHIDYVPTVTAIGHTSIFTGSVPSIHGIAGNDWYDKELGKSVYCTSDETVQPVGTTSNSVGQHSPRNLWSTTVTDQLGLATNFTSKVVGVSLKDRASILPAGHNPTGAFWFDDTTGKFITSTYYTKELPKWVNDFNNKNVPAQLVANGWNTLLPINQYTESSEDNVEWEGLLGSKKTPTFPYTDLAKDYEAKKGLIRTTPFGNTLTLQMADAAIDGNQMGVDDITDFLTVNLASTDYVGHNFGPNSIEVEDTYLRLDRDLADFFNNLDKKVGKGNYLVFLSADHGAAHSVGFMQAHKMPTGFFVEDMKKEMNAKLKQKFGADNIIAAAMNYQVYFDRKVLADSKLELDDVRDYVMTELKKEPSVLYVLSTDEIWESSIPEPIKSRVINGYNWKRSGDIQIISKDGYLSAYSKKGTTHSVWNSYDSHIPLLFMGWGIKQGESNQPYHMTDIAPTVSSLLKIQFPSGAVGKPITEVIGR"}
{"Substitution": "Q510G", "target": "tungstate, free oxyanion", "test": "microfluidic competitive inhibition", "system": "in vitro, cell-free expressed", "setting": "not given, derived from inhibition constants, unchanged parent 2230 nM", "scale": "lower = stronger binding", "measurement": "oxyanion analog dissociation constant", "result": "2.47 µM"}
{"note": "Excerpt of the above (study 2):"}
{"Strand": "AGAGUC", "6-mer enrichment (R)": 0.739}
{"Strand": "CCGCGC", "6-mer enrichment (R)": 0.829}
